Measurements of several laboratories.
A part holds a random share of what one study measured. Changes are numbered by the printed parent chain.

Set 1
Target: CCNB3, cyclin fold, Cln2 fusion (human)
Method: yeast growth competition, sequencing
Sample: yeast
Notes: weak parent motif
Relative to: not given
Reading: higher = stronger binding
Parent: DBF4B docking peptide (human); LGYLYLLLTQSLW
Variant	normalised enrichment score
Y3A	0.0911
L4A	0.362
Y5A	0.309
L6A	0.102
L12A	0.398
Q10A	0.56
W13A	-0.233

Set 2
Target: Interferon regulatory factor 7, full length, phosphomimetic (IRF7, Homo sapiens, UniProt Q92985, residues 1-503, S471D/S472D/S475D/S476D/S477D/S483D/S484D/S487D)
Sequence of UniProt Q92985 (whole entry, unmodified, looked up): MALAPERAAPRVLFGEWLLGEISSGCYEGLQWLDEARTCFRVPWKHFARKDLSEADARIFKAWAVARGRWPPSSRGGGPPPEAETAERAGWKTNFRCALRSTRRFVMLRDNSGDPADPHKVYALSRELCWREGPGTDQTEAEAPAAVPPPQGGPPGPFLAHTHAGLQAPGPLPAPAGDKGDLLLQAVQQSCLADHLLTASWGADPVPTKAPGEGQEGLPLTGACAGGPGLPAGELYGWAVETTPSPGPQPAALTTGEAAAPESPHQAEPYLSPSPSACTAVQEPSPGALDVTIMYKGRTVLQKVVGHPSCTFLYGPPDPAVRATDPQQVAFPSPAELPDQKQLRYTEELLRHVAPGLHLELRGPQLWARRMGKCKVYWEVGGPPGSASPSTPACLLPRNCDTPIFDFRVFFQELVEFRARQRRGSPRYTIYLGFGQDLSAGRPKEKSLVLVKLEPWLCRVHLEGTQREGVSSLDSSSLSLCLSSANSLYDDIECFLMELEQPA
Method: protein-binding microarray
Form: double-stranded DNA, one strand shown
Sample: in vitro
Tested at: 2200 nM top
Notes: 60-bp whole probe
With: salmon DNA 0.4 mg/ml
Relative to: random background probes
Reading: higher = stronger binding
All sequences stand within: GCCTAGCAC … GTCTTGATTCGCTTGACGCTGCTG
Strand	fitted relative affinity [z-score]
TTAGACTTCAGTCTCGATTAGTGCTAG	0.126
AATGTTTTGTTTTTCATTATGTGCTAG	3.01
GACGATTTAAGTTTCGAGACGTGCTAG	2.91
GCACTTTTCCCCCTAGTTGTGTGCTAG	2.75
GACGGACTGGTACTGGGGACGTGCTAG	-0.713
TTAGGTTTCCTTCTCATTTAGTGCTAG	1.74
TTAGAACTAAGTTTCGATTAGTGCTAG	4.83
TCTAATATTCATTTTATTCAGTGCTAG	1.17
TATAATTTTGTCATCTATAAGTGCTAG	0.55
CTGCCTGGCCAAGCCCAGATGTGCTAG	-0.915
TTAGGACTGGACAATCGGTTAGTGCTA	-0.201
GACGGTTTCCTTTCTCTGACGTGCTAG	4.98
GACGGACTGATTCTCCTGACGTGCTAG	0.212
GACGATTTCAGTTGCGAGACGTGCTAG	1.11
AACGGTATCGACTTTCGGGACGTGCTA	3.22
TCACTTCTTTTTTTTCTACTGTGCTAG	2.51
TCATGAACCATTTTGGTACTGTGCTAG	0.319
TTAGGTCTACTTCTCCTTTAGTGCTAG	1.06
TTAGATATCAGACTGAATTAGTGCTAG	-0.485
TCATTTAGAAATTTCTTACTGTGCTAG	0.536

Set 3
Target: CEP164, C-terminal peptide (human)
Method: DHFR complementation, deep sequencing
Sample: yeast
Notes: single substitutions, model-inferred values
Relative to: wild type
Reading: higher = weaker binding
Parent: PDZK1, PDZ domain 2 (human); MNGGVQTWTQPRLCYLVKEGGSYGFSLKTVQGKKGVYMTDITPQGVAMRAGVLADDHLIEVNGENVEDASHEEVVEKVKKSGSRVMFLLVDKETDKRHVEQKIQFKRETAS; partner HNRVKVYRF
Variant	binding free energy change [kcal/mol]
K77D	0.655
T7M	-0.0976
P11C	0.231
N62T	0.625
K34A	0.211
T7E	-0.0938
I103L	-0.107
G82W	0.447
S22E	0.114
V85R	1.41
W8C	-0.0803
A50E	0.279
G24W	1.12
E67R	0.189
N65Q	0.565

Set 4
Target: Centromere-binding protein 1, full length, N-terminal tag (CBF1, Saccharomyces cerevisiae, UniProt P17106, residues 1-351)
Sequence of UniProt P17106 (whole entry, looked up): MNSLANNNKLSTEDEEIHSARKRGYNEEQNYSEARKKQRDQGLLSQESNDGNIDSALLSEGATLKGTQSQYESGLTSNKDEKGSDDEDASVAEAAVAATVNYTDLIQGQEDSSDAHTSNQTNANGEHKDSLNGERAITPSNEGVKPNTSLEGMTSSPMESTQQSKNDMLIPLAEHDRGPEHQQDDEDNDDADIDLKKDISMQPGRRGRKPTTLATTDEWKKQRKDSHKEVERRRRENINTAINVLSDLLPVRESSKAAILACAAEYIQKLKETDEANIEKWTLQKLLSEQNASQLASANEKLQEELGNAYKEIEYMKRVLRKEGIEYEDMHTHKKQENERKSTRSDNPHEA
Method: protein-binding microarray
Form: double-stranded DNA, one strand shown
Sample: in vitro
Tested at: 0.8 µM
Notes: whole 60-bp probe, no competitor
Reading: higher = stronger binding
All sequences stand within: … GTCTTGATTCGCTTGACGCTGCTG
Strand	fluorescence intensity [a.u.]
CTATATAATCAGCATCATGTTTTTTAAGCGAGATTC	573
CTAAATCTTCAAAATCATGTGGATTTTTATTGATTC	792
CTATGTTCTTGAGAAAACAACACGTTTACTTGTTTC	586
CTATATTAAATAACTCAGCTGAGATTTCTCATTTTC	466
CTAATAAAGCATTGTGATGTTAAAGAATGACGATTC	550
CTACAATATCCGGGTCACGTGAAAGTTAGATAATTC	20200
CTAAATGACATATGTCACGTGCTTTAGGGCTTGTTC	16500
CTAGATGTTCAACCTCGCCTGATCCTACCAAAATTC	566
GAACCTCCCGAACAACGTGAAATCTTTTTGCTTTAG	607
GAAAGTTGACGAATCAACGTGATAATTGTGTAATAG	820
GAAAATCTTCATAAATTCGTGACAAATTAGAATTAG	589
GAAAATACAGTTCATCATGATCTGTGATCTAGCTAG	579
GAAAGCGATAACTCTATCGTGACATTCAGTGAATAG	600
TGTACGAAGCTATTACACATGGATATAGTAGTTAGG	509
CCTAACTACTATAGTCACACAGCATAGCTTCGTACA	531
CTATTGGCTATGAACCACGCGTCATTAATGTGTTTC	599
CCTAACTACTATAATCATGCCTTATAGCTTCGTACA	541
CCTAACTACTATAATGATGACATATAGCTTCGTACA	535
GAAACATAACAGCATCATGCAAGCCTTTAAAAATAG	515
TGTACGAAGCTATGTCACAAGGTTATAGTAGTTAGG	714
GAAAAGGAGAGTCGTCACCTGTAAAAGGAATCTTAG	599
GAACGATAAAAGACCCTCACCTGTGTCACTAAATAG	510
GAATGGTAAAAAAGTATGACCACGTTAACTTTCTAG	627
GAATCCATTAATTGTCACCTTATGTTTTGTGTATAG	572

Set 5
Target: CREB3L3, bZIP domain (human)
Method: DHFR protein complementation
Sample: yeast
Notes: single substitutions, most at no-binding floor
Relative to: wild-type JUN-FOS pair
Reading: higher = stronger binding
Parent: JUN, bZIP domain (human); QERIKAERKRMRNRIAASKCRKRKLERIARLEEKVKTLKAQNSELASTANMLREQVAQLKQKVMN; partner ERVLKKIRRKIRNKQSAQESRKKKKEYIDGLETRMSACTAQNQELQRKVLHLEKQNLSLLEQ
Variant	binding fitness [natural log]
Q41H	-1.45
A49Q	-1.36
A29P	-1.56
L45W	-1.45
S43F	-1.52
K36L	-1.28
L38A	-1.51
T37N	-1.32
I28W	-1.49
Q41N	-1.55
A40G	-1.49
S43C	-1.46
V56R	-1.45

Set 6
Target: Histone acetyltransferase KAT6A, both winged helices, GST fusion (KAT6A, Homo sapiens, UniProt Q92794, residues 1-181)
Method: protein binding microarray
Form: double-stranded DNA, one strand shown
Sample: in vitro
Tested at: not given
Notes: 8-mer, flanks averaged, mean of 2 arrays, mostly near background
Relative to: not given
Reading: higher = stronger binding
Residues (chain): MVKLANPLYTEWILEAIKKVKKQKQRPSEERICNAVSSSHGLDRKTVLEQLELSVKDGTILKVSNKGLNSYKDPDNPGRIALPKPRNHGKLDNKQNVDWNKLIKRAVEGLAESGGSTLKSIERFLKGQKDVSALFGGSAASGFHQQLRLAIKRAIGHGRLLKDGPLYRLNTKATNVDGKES
Strand	E-score
AATCGACG	0.106
CAGCCAAC	-0.0352
ACGGAGAG	0.106
AGGACTAT	-0.122
CTGCCTCC	-0.0693
AACCTCTA	-0.0044
CGAAATGA	0.04
TCAGAGCA	-0.184
CGATGCGC	0.287
ATTAGAAA	-0.109
CAACTCAA	-0.18
GAGAACTC	-0.171
CCATGGCG	0.155
TATAGGCA	-0.144
GACTTATC	-0.136
AGGACTAG	-0.111
ATTTTTCC	-0.0367
TTAGCGAA	0.12
CAATGTAG	-0.15
ATTTATAG	-0.215
AATGCAGC	-0.0891
ATCCTATA	-0.138
CCACTTGC	-0.23
AGCCTCAG	-0.0805
CATTCGAA	-0.118

Set 7
Target: PABPC1L2, full length, GST fusion (mouse, UniProt A0ABA7IW68)
Method: RNAcompete
Form: RNA
Sample: in vitro
Tested at: 20 nM
Notes: 7-mer, probes averaged, single round
Relative to: mean of 7-mers
Reading: higher = stronger binding
Strand	7-mer Z-score
CAGCAUU	-0.209
AAUAUAU	0.184
CGGGUUU	-0.32
GGAAAUA	0.562
AAAGCCG	0.657
UCCUGGG	-0.117
GAAACCU	-0.0971
ACCCCCA	-0.371
GCGUGCA	-0.148
GGCCCAG	-0.0645
UCUGCGG	-0.142
GGGCCAU	0.215
AGACCAU	-0.235

Single results of other studies
Molecule	target	test	test system	setting	scale	quantity	result
PhoQ, residues 284 288 289 292 302 303 SSYNSA	PhoP, residues 12 14 15 18 19 QYFSL (Escherichia coli, UniProt P23836)	Sort-seq, item: YFP reporter	E. coli	PhoQ-PhoP variant library, with: 10 µM Mg2+	relative to: high Mg2+ state, higher = stronger signaling	fold induction	10.3

A few entries again (set 6):
Strand	E-score
AGGACTAG	-0.111
ATCCTATA	-0.138
ATTTTTCC	-0.0367
GACTTATC	-0.136
AACCTCTA	-0.0044
TTAGCGAA	0.12
CGATGCGC	0.287
CGAAATGA	0.04
CTGCCTCC	-0.0693
CAACTCAA	-0.18
AGCCTCAG	-0.0805
AGGACTAT	-0.122
CCATGGCG	0.155
CATTCGAA	-0.118
